Experimental data of several laboratories.
A part holds a random share of what one study measured.
Sequence of UniProt P42336 (whole entry, unmodified, looked up): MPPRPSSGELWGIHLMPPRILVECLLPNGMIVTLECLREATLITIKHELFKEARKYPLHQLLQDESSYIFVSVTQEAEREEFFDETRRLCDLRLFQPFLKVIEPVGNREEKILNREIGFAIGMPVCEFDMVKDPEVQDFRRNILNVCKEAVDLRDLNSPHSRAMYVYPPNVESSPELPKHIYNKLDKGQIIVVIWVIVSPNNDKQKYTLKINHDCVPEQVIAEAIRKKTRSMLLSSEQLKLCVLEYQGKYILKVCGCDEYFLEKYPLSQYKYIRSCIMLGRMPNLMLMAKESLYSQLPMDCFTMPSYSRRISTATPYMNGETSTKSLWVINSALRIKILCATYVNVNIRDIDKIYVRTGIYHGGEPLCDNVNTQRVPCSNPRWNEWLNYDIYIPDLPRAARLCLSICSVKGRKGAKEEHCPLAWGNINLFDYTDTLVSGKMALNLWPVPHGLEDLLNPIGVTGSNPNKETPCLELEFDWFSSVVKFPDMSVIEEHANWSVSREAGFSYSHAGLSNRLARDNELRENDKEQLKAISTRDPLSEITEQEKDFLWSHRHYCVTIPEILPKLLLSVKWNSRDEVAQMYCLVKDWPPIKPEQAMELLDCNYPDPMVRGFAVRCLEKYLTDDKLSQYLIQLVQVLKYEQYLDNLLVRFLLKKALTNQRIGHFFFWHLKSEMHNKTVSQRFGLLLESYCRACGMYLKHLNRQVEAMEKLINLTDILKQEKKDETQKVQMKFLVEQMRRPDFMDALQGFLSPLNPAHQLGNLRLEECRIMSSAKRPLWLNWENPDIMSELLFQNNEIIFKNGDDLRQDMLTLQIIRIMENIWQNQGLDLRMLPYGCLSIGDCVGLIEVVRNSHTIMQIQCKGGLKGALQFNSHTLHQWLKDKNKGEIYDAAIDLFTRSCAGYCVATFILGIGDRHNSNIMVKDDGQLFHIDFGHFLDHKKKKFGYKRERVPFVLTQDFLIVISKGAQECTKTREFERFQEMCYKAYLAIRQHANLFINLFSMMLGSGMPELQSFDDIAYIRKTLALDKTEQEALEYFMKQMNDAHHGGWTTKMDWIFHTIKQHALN
Sequence of UniProt Q9NRH2 (whole entry, looked up): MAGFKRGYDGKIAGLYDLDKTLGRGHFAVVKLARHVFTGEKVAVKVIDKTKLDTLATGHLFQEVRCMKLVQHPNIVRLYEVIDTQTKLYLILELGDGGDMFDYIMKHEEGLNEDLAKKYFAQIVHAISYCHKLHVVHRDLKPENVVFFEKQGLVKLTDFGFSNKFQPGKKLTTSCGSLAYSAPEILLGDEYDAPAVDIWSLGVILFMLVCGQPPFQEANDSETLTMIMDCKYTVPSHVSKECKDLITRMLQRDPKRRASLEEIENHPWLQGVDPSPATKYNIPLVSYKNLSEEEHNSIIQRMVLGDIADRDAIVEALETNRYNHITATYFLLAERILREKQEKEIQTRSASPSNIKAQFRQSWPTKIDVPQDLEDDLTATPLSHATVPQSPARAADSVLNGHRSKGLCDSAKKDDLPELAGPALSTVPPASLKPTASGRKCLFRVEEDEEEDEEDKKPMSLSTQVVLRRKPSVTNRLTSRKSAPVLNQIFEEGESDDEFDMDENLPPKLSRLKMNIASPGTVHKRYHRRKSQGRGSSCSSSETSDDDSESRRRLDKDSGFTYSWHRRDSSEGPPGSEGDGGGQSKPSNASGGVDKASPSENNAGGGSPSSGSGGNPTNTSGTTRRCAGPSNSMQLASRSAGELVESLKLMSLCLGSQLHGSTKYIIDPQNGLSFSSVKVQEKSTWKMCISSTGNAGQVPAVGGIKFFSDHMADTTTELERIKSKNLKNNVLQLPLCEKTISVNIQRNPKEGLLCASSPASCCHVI
Sequence of UniProt Q9NWZ3 (whole entry, looked up): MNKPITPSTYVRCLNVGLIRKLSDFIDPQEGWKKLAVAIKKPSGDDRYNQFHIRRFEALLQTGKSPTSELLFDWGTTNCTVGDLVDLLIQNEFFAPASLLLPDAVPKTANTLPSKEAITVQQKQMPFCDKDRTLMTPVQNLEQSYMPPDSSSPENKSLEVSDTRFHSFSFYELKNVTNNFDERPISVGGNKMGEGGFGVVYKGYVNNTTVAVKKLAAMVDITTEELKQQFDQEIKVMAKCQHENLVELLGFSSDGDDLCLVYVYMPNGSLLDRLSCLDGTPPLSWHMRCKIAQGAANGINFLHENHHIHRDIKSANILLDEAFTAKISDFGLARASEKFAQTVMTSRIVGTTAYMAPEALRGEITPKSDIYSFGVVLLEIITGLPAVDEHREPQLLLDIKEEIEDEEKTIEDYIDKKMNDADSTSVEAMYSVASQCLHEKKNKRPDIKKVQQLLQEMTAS

Series 1 — method: protein-binding microarray; form: double-stranded DNA, one strand shown; matrix: in vitro; tested at: 250 nM; notes: 60-bp whole probe; added: salmon DNA 0.4 mg/ml; baseline: random background probes; reading: higher = stronger binding; constant ends, left off below: GCCTAGCAC … GTCTTGATTCGCTTGACGCTGCTG
Target: Interferon regulatory factor 7, full length, phosphomimetic (IRF7, Homo sapiens, UniProt Q92985, residues 1-503, S101K/S471D/S472D/S475D/S476D/S477D/S483D/S484D/S487D)
Sequence of UniProt Q92985 (whole entry, unmodified, looked up): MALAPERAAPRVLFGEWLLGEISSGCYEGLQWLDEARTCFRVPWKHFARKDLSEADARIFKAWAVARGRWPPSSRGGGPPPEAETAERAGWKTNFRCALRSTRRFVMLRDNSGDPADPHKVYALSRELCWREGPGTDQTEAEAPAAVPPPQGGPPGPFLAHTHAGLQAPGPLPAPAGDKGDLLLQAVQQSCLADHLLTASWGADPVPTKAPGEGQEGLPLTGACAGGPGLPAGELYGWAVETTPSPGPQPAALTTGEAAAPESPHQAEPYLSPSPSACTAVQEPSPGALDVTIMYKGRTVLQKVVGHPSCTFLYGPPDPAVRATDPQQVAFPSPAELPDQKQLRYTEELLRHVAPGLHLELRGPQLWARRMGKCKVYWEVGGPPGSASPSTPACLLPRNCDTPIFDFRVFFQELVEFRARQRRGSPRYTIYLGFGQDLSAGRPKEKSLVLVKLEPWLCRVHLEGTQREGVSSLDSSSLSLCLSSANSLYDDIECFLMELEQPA
| Oligonucleotide | log fluorescence [z-score] |
| --- | --- |
| GACGGACTGGTTCTCCTGACGTGCTAG | -0.476 |
| TCAAAAATGATGTTTTAGACTGTGCTA | -0.343 |
| TTAGAGATCGGGTATCGATTAGTGCTA | 0.355 |
| TTAGGACTGGGTATCGGTAAGTGCTAG | 0.15 |
| GTCTCTTGTTCTCTCTGGCCGTGCTAG | 1.67 |
| TTAGCTATCAGTATCGATTAGTGCTAG | 0.367 |
| GACGGTAGCGGTCTCGGGACGTGCTAG | -0.764 |
| TGTGGTGCAGCTCCCTCCTCGTGCTAG | -1.02 |

Series 2 — effect on: cell-free assay; method: competition with immobilised ligand; tested at: 0.1 µM
Structure (SMILES): Nc1c(C(=O)NCc2ccc(C(=O)NCCCC3CCCCC3)cc2)cnn1-c1ccccc1
| target | remaining binding [%] |
| --- | --- |
| PIK3CA (Homo sapiens, UniProt P42336, M1043I) | 100 |
| SNRK (Homo sapiens, UniProt Q9NRH2) | 91 |
| FLT3 (Homo sapiens, UniProt P36888, D835Y) | 100 |
| IRAK4 (Homo sapiens, UniProt Q9NWZ3) | 100 |
| PIK3CA (Homo sapiens, UniProt P42336, Q546K) | 96 |
| PRKACB (Homo sapiens, UniProt P22694) | 82 |

Series 3 — effect on: enzyme activity; mode: inhibitor; tested at: 0.5 µM; baseline: control
Target: Serine/threonine-protein kinase TBK1 (TBK1, Homo sapiens, UniProt Q9UHD2)
Sequence of UniProt Q9UHD2 (whole entry, looked up): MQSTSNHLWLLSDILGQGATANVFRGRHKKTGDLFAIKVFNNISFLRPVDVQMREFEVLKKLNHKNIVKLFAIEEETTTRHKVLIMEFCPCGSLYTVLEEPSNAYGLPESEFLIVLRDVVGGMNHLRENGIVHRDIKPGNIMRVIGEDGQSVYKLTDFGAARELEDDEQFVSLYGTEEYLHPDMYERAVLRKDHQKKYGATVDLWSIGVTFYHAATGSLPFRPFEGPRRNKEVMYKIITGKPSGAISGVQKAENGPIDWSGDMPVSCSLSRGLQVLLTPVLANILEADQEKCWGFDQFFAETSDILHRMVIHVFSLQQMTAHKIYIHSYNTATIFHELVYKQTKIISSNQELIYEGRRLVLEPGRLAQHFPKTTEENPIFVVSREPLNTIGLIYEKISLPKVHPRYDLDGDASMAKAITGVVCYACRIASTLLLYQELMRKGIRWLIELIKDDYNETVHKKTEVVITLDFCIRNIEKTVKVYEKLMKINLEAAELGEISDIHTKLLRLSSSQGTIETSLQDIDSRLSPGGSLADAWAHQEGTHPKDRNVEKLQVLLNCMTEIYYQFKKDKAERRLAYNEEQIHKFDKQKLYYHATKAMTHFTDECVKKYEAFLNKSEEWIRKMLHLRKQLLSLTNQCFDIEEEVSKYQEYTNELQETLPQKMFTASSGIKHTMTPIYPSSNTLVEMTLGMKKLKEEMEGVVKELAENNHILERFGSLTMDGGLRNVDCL
| Compound | remaining activity [%] |
| --- | --- |
| Cc1nc(-c2ccccc2)c(-c2ccncc2)o1 | 88 |
| COc1ccc(C(=O)Nc2sc3c(c2C(N)=O)CCCC3)cc1OC | 102 |
| COc1ccc(OC)c2c(=S)c3ccccc3[nH]c12 | 97.5 |
| O=c1c2ccccc2[nH]c(=S)n1CCN1CCC(=C(c2ccc(F)cc2)c2ccc(F)cc2)CC1 | 104 |
| Cc1ccc(Nc2nccc(N(C)c3ccc4c(C)n(C)nc4c3)n2)cc1S(N)(=O)=O | 99.5 |
| CO[C@H]1C[C@@H]2CC[C@@H](C)[C@@](O)(O2)C(=O)C(=O)N2CCCC[C@H]2C(=O)O[C@H]([C@H](C)C[C@@H]2CC[C@@H](O)[C@H](OC)C2)CC(=O)[C@H](C)/C=C(\C)[C@@H](O)[C@@H](OC)C(=O)[C@H](C)C[C@H](C)/C=C/C=C/C=C/1C | 94.7 |
| O=C1NC(=O)C(c2cn(CCCn3ccnc3)c3ccccc23)=C1Nc1ccccc1 | 48 |
| C#Cc1cccc(Nc2ncnc3cc(OCCOC)c(OCCOC)cc23)c1 | 73 |
| COc1ccc(CNC(=O)Nc2ncc([N+](=O)[O-])s2)cc1 | 104 |
| OCC(O)CCON=C1C(c2c(O)[nH]c3ccccc23)=Nc2ccccc21 (stereo not drawn) | 29.9 |
| Cn1sc(=O)n(Cc2ccccc2)c1=O | 102 |
| O=C(Nc1cccc(Nc2cc(Nc3cccc(C(F)(F)F)c3)ncn2)c1)C1CC1 | 99 |
| CNC(=O)c1cc(Oc2ccc(NC(=O)Nc3ccc(Cl)c(C(F)(F)F)c3)cc2)ccn1 | 98.6 |
| Nc1ccc2ncnc(NCCc3ccc(Oc4ccccc4)cc3)c2c1 | 100 |
| O=C(O)c1ccc2c3c1cccc3c(=O)n1c3ccccc3nc21 | 20.2 |
| Cn1c2ccccc2c2c3c(c4c5ccccc5n(CCC#N)c4c21)CNC3=O | 72.1 |
| Nc1[nH]nc2nc3ccccc3nc12 | 92 |

Series 4 — method: RNA Bind-n-Seq; form: RNA; matrix: in vitro; tested at: 20 nM; notes: 6-mer, flanks averaged, single round; added: 150 mM LiCl; baseline: input library; reading: higher = stronger binding
Target: TAR DNA-binding protein 43, full length, His tag (TARDBP, Homo sapiens, UniProt Q13148, residues 1-414)
| Oligonucleotide | 6-mer enrichment (R) |
| --- | --- |
| UACAUA | 0.873 |
| GAUGGC | 1.01 |
| UUCUUG | 1.05 |
| GGGGAA | 1.19 |
| ACUGAG | 0.91 |
| UUACGA | 0.84 |
| AGCAGA | 0.898 |
| GUCGUU | 1.03 |

Repeated from above (series 2):
| target | remaining binding [%] |
| --- | --- |
| PIK3CA (Homo sapiens, UniProt P42336, Q546K) | 96 |
| PIK3CA (Homo sapiens, UniProt P42336, M1043I) | 100 |
| IRAK4 (Homo sapiens, UniProt Q9NWZ3) | 100 |
